Experimental data from different studies.
Sample: plasma
Route: oral

C#C[C@]1(CO)O[C@@H](n2cnc3c(N)nc(F)nc32)C[C@@H]1O
Cmax (human; 30 mg, single dose, fasted): 1070 nM

C[C@@H]1CCC[C@H](n2cnc(-c3cc(Cl)ccc3-n3cc(Cl)nn3)cc2=O)c2cc(ccn2)-c2c(cnn2C(F)F)NC1=O
Cmax (human; 60 mg, single dose, fasted, healthy volunteers): 337 ng/mL

CCCOc1ccc([C@H]2CNC(=O)N2c2ccc3[nH]cnc3c2)cc1
Cmax (human; 200 mg, single dose, fasted): 818 ng/mL

COc1cccc(-c2ccc(NC(=O)C3=C(C(=O)O)CCC3)c(F)c2)c1
Cmax (male human; 20 mg, single dose, fasted, healthy volunteers): 3370 ng/mL

Nc1ncc(-c2cnn(CCO)c2)c2scc(-c3ccc(NC(=O)Nc4cccc(F)c4)cc3)c12
Cmax (human; 80 mg, patients): 115 ng/mL

C[C@H](N)C(=O)N1C[C@H](CCCB(O)O)[C@](N)(C(=O)O)C1
Cmax (human; 150 mg twice daily, multiple doses, patients): 3490 ng/mL

Cc1c(Cl)c(C)[n+]([O-])c(Cl)c1-c1noc(-c2cc(O)c(O)c([N+](=O)[O-])c2)n1
Cmax (male human; 25 mg, single dose, fasted, healthy volunteers): 804 ng/mL

Nc1ccc(-c2nc([C@H]3CCc4cc(-c5cc(Cl)ccc5-n5cnnn5)cc(=O)n43)c(F)[nH]2)c(F)n1
Cmax (human; 150 mg, single dose, fasted): 1390 ng/mL

CCCCCN1C[C@H](O)[C@@H](O)[C@H](O)[C@@H]1CO
Cmax (male human; 300 mg, single dose, fed, healthy volunteers): 2270 ng/mL

CS(=O)(=O)n1cc2c(n1)CN([C@H]1CO[C@H](c3cc(F)ccc3F)[C@@H](N)C1)C2
Cmax (male human; 100 mg, single dose, fasted): 2710 nM

CNCc1ccc(-c2[nH]c3cc(F)cc4c3c2CCNC4=O)cc1
Cmax (human; 240 mg, multiple doses, twice daily, steady state, patients): 971 ng/mL

CNC(=O)c1ccc(-c2cnc3ncc(Cc4ccc5ncccc5c4)n3n2)cc1F
Cmax (human; 600 mg twice daily, multiple doses, steady state, patients): 4890 ng/mL

O=C(c1nc2n(n1)[C@H](c1ccccc1)C[C@@H]2F)C1CC1
Cmax (human; 75 mg, single dose, fasted, healthy volunteers): 783 ng/mL

Excerpt of the above:
CNC(=O)c1ccc(-c2cnc3ncc(Cc4ccc5ncccc5c4)n3n2)cc1F
Cmax (human; 600 mg twice daily, multiple doses, steady state, patients): 4890 ng/mL
